# Published values collected from several papers.
# Parts stem from different laboratories: compare values within a part only.

# Sample 1 — method: RNA Bind-n-Seq; molecule type: RNA; sample: in vitro; concentration: 365 nM; baseline: no-protein control; reading: higher = stronger binding
# Target: RNA binding protein fox-1 homolog 2, RRM domain, GST-SBP tag (RBFOX2, Homo sapiens, UniProt O43251-10, residues 100-194)
# Setting: natural RNA segment, single round, ends assumed
# All sequences stand within: GGGAGUUCUACAGUCCGACGAUC … UGGAAUUCUCGGGUGCCAA
# Residues (chain): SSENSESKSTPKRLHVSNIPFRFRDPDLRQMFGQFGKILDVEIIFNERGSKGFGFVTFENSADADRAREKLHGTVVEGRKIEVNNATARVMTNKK
Oligonucleotide,RBNS enrichment (R)
UCUACUGACCUGAAUGUGUUGGAUCUACACGUGUUGUUUUGUUUUUGCUUUAUUGAUGCACGGAUGCUUUUGAACAGUAGAGCGAAAUGCUAGACAUGGAGAAUCUGCUC,13.7
GAUGAUAGAGGGUGAAUGAUCUCAGUGCAUAUGUCAUACUGCCUUGUGGGUGGACUCUAAGUUGGCAAACCAAGGAUUUAGGGAGUGGCCUAGUCAACAUAAUUCUUUAA,3.47
CUGAUUGAGGACACAUGGUUACCACCUGGCCCUGAGUGCAGUCAGACUGGGACAAAGGAGCCGUGAAACACGCAAGGAGCUUCUGGCUUCUCAGCUUUGAGACCUGGGCU,0.324
AGAACCUAAUGAAAGGACCACGUUUUAUUUAUUGUGCUUUUGAUUGAACCACCAUAGACCUAGUAAGUGAGCCCAGUGUGUCCUCCCAUGUAAGAGCCAGGUGUUCAGUG,0.331
UAGGCUGUGUUGUUCGCCCAGGUUUCUGCAUCUUGCACUUUGACAUUCCCAAGAGGGAAGGGACUAGUGGGAGAGAGCAAGGGAGGGGAGGGCACAGACAGAGAGGCUAC,0.881
UCUGGGCCCUUCCACAAGGGUCCUCUGAACCAAGCCCCACUCCCUUGCUAGGGGUGAAAGCAUUACAGAGAGAUGGAGCCAUCUAUCCAAGAAGCCUUCACUCACCUUCA,0.194
CCCUGACUCCCAUGCUGUGCUUGCCGCUCUGAAACAAACAGAGGCUGGAACUUUGUGGUCCUUGCCGAGUUUUGUAGGGGUCACUGUCACAUGCUUGUGCCCUGGAAGCC,0.355
UUCCUUUAAAAUAAUUGGGCCAUCCAUUCUCUGUCUCCAUUAUCGCUGUCAACAGAAGUUAUGGUUUGUAUGUGAGCCCUUUCCUCUCAACUGCUUUACUAAGGAGCAAU,0.34
UUGCCAUCUAGAUGAGAGCUGCUCAGCCCAGGAAUCUCCCACUGUUUCCCCUGAGCAGUCUUCCUCAGGGCUCAGUGUACCCUCGGGAGACCCUGGGAGACCAAGGCAUU,0.194
CUCCCACUGCACACAGGGUGGUGGCACAUUAUCCCUCUGGGGGGUGGGGACGCCUGUUGUUUUGGCUCAAUUUGGGUUUGUUGGUCACAUGGAGCUCUUCCAUUUCGUUU,1.09
AUUUAUAUUUCUGCUUGCACCAUUUCCAUAGCAGCUGACAAAGGCAAAAUCAUGAAAUAGAAUCAUUUCUAUAAAUUGCUUCUUUAAGUUUUCUCUAAAUUUUGCCUCUA,0.682
AGAUGCCCCAGAGCUGUUUAUGGCCUCAGCUGCCUCACUUCCUACAAGAGCAGCCUGUGGCAUCUUUGCCUUGGGCUGCUCCUCAUGGUGGGUUCAGGGGACUCAGCCCU,0.217

# Sample 2 — method: universal PBM; molecule type: double-stranded DNA, one strand shown; sample: in vitro; concentration: not given; reading: higher = stronger binding
# Target: Sal-like protein 4, full length isoform B (SALL4, Homo sapiens, UniProt Q9UJQ4-2, residues 1-616)
# Setting: 8-mer, flanks averaged, mean of replicates
Oligonucleotide,E-score
CGTCCAAC,0.0198
CCGCTCCA,-0.199
CGAGATAG,-0.266
GCGCGAGC,-0.325
GCGATAAA,0.0944
TACACACA,0.207
CACTACCA,0.00665
CAGGGATA,0.0107
CTATCTGA,-0.0289
CATAGCAC,0.127
ACGTCGTA,0.0308
CCTGTTAA,0.0637
ACTGCGTA,-0.237
CTCAATAA,0.242
GATCACCC,-0.185
ACCTCGTG,0.036
TCGCACAA,-0.0434
AGCTGTAC,-0.141
CAGCACGA,-0.162
AGGGATCA,0.0111
AGGATCAA,-0.015
CGGACCCA,-0.182
AGTAGAGG,-0.195
CCAATAAC,0.206
ATTTCAAG,0.241

# Sample 3 — method: RNA Bind-n-Seq; molecule type: RNA; sample: in vitro; concentration: 200 nM; setting: whole 134-nt RNA, ends assumed; together with: 150 mM LiCl; baseline: input library; reading: higher = stronger binding; each molecule: 7-deaza-guanosine replaces G
# Target: Ras GTPase-activating protein-binding protein 1, full length (G3BP1, Homo sapiens, UniProt Q13283)
# Chain of UniProt Q13283 (whole entry, looked up): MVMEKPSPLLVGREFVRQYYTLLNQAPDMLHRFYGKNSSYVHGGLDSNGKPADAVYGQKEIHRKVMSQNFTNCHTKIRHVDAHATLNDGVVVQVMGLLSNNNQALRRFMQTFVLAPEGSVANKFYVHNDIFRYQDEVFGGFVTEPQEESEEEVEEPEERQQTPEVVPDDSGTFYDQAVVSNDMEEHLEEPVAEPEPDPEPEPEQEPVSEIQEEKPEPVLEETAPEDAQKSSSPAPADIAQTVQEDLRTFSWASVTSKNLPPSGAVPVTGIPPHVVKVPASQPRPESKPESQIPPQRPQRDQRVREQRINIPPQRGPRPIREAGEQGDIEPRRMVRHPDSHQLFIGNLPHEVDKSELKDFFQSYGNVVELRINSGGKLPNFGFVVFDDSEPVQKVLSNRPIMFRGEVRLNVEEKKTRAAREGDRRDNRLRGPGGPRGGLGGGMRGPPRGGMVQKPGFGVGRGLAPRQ
# All sequences stand within: GGGAGUUCUACAGUCCGACGAUC … UGGAAUUCUCGGGUGUCAAGG
Oligonucleotide,log2 enrichment
CCUGUGCUACACAUCGUAUGUACCGAAUCGGGAAAAAAAGGGAAAAAAAGGGUUUUUGGGAAAGUAUUAUGUUACGCCGUUCGGAUCUGC,-1.36
AAGUCCUGUGCUACACAUCGUAUGUACCGAAUCGGUGGAAAAAAAGGAAAAAAAGGAAAGUAUUAUGUUACGCCGUUCGGAUCUGCACUU,-1.26
ACCAUGCAGGUGCGCAUCUUUGGGAAGUGGGGCAAGGGGGGGAUAGGGAGGGGGGUAACACUUUGGGAACAGGUGGUCCCAGGUCGUUUC,0.268
AAGUCCUGUGCUACACAUCGUAUGUACCGAAUCGGGAAAAGGAAAAGGGGAAAAGGAAAGUAUUAUGUUACGCCGUUCGGAUCUGCACUU,-0.333
CCUGUGCUACACAUCGUAUGUACCGAAUCGGGGAAAGGGGAAAAAAAGGGGAAAAAGGGGAAAGUAUUAUGUUACGCCGUUCGGAUCUGC,0.943
CUCAAGUCCUGUGCUACACAUCGUAUGUACCGAAUCGGAAAGGUUUUUGGAGGAAAGUAUUAUGUUACGCCGUUCGGAUCUGCACUUCCA,0.0189
UGGCCCUCGUGGCAUGCGGGGAGGAAGAGGUGGCCUCAUGGAUCGUGGUGGUCCCGGUGGAAUGUUCAGAGGUGGCCGUGGUGGAGACAG,0.292
UUCCUCAAGUCCUGUGCUACACAUCGUAUGUACCGAAUCGGUGGUGGUGGGAAAGUAUUAUGUUACGCCGUUCGGAUCUGCACUUCCAGC,0.8
UCAAGUCCUGUGCUACACAUCGUAUGUACCGAAUCGGAAAGGUGGUUUUUUUGGAAAGUAUUAUGUUACGCCGUUCGGAUCUGCACUUCC,0.159
CCUCAAGUCCUGUGCUACACAUCGUAUGUACCGAAUCGGUGGUUUGGAAAGGAAAGUAUUAUGUUACGCCGUUCGGAUCUGCACUUCCAG,0.596
CACAGACAACACGCACCCACACAGACACAGUGGGAAGGGGUUGGGAUGGGGACAGGGUGCACAGCAGGGCGGGGUAGGACCCCAGCCCCU,-1.06

# Sample 4 — method: competition protein-binding microarray; molecule type: double-stranded DNA, one strand shown; sample: in vitro; concentration: 2 µM; together with: Pho4 competitor, 0.05 µM; reading: higher = stronger binding; all sequences stand within: … GTCTTGATTCGCTTGACGCTGCTG
# Target: Centromere-binding protein 1, full length, His-tagged (CBF1, Saccharomyces cerevisiae, UniProt P17106, residues 1-351)
# Chain of UniProt P17106 (whole entry, looked up): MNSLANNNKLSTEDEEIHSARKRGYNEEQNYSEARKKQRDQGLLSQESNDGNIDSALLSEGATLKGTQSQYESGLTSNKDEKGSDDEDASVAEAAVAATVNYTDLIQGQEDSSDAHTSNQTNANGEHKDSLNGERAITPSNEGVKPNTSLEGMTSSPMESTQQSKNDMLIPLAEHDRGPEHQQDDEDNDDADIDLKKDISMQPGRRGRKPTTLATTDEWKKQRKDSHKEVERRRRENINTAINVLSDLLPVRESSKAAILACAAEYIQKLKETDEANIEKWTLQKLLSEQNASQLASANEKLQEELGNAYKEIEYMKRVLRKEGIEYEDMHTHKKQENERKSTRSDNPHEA
# Setting: whole 60-bp probe, lowest competitor level
Oligonucleotide,fluorescence intensity
AAATTACTAAGTTGGTGAGTGGGTGACGCCGTATGA,62.2 a.u.
TTAGAGAATGAAAAGCACGTGGGTACTTCGATTTTG,1440 a.u.
TTAAAGTTTCTCCATCACGTGAAGCATTACCATTTT,3500 a.u.
ATAGAAAACTGCATAGTCGTGCTTTCAAACCTTTCT,119 a.u.
CTCTCGAAGTTTGGAAACGTGGTGAGTGCCTTGACG,96.6 a.u.
CTTCTGTAAATTTGTTAAGTGGGTGGACGCGCCCCG,84.2 a.u.
ACCAATCACTTTTTCATTTTTTTTCAAAAGCTCATC,87.4 a.u.
CTTCCCAGGCCCACCAACGTGCGATCCCCGCTATGT,59.6 a.u.
CTAACGAAGGTTTGGCCGGTGGGTGACAAGCCAAGT,71.4 a.u.
GTTATAAAAATATGTCAGGTGATTTTTTTTTCTCTT,2210 a.u.
GTCTTGTCTCATTGTGGTGTGGGTGTCCCCACTTCA,71.4 a.u.
GAATTACAGTTGGATGACATGTTGAACTCAGAAAAA,76.9 a.u.
ACAGATAAAGTCTAGTACGTGTGGAGGTTAATGCGC,67.5 a.u.
GCACTTTCAGGTACCAGCGTGCTAAAGCCATTTTCG,74.7 a.u.
CATACCCAACCTTGTTTCGTGGGTGAAGATATTTGT,67.4 a.u.
TGAAGTGCCTGGCATCAGGTGAAACGGACCCCAAAG,68.7 a.u.
CGCTACCAACTGCGCCATGTGCCCAGAATTTCTGTA,183 a.u.
CATACCCAACCTTGTCACACGACTTAAGATATTTGT,141 a.u.
ATAGAACGCAGAGCCCACGTGTGCCTGGCACTTGGC,462 a.u.
GCAATAGACACCACAAACGTGCGGAAGAAACCGCAA,83.3 a.u.
CGGGGTTAAGTTTTTCACGTGCGGTGCTTGCAGCAG,394 a.u.

# Some of these lines once more (sample 4):
Oligonucleotide,fluorescence intensity
CTAACGAAGGTTTGGCCGGTGGGTGACAAGCCAAGT,71.4 a.u.
GTTATAAAAATATGTCAGGTGATTTTTTTTTCTCTT,2210 a.u.
GTCTTGTCTCATTGTGGTGTGGGTGTCCCCACTTCA,71.4 a.u.
GAATTACAGTTGGATGACATGTTGAACTCAGAAAAA,76.9 a.u.
ACAGATAAAGTCTAGTACGTGTGGAGGTTAATGCGC,67.5 a.u.
GCACTTTCAGGTACCAGCGTGCTAAAGCCATTTTCG,74.7 a.u.
CATACCCAACCTTGTTTCGTGGGTGAAGATATTTGT,67.4 a.u.
